Results of several laboratories.
Numbered parts are unrelated; each lists some results of a single study. Several values in a cell are separate wells, animals, samples, runs or records.
UniProt Q9Y4K4, sequence (whole entry, looked up): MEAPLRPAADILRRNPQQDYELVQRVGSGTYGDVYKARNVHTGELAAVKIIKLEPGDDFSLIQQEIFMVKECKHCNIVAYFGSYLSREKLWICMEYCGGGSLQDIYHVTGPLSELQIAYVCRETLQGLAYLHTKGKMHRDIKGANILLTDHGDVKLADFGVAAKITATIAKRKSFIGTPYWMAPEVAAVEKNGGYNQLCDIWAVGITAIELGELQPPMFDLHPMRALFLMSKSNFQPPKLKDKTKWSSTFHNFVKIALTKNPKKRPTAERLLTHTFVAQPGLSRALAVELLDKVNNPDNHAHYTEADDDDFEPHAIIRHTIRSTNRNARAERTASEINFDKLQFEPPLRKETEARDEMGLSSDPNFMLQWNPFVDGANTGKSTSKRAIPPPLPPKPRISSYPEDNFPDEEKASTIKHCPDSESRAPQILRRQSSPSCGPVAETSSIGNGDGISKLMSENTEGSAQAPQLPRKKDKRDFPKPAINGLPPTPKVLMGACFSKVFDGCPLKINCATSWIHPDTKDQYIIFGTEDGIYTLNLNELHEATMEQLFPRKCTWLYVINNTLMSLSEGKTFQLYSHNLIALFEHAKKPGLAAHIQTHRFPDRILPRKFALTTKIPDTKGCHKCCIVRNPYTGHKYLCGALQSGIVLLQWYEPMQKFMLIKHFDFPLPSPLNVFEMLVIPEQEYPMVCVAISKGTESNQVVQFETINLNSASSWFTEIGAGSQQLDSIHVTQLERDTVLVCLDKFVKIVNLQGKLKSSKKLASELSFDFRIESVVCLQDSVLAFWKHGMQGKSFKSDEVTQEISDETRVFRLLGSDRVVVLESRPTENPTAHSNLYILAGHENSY
UniProt P07947, sequence (whole entry, looked up): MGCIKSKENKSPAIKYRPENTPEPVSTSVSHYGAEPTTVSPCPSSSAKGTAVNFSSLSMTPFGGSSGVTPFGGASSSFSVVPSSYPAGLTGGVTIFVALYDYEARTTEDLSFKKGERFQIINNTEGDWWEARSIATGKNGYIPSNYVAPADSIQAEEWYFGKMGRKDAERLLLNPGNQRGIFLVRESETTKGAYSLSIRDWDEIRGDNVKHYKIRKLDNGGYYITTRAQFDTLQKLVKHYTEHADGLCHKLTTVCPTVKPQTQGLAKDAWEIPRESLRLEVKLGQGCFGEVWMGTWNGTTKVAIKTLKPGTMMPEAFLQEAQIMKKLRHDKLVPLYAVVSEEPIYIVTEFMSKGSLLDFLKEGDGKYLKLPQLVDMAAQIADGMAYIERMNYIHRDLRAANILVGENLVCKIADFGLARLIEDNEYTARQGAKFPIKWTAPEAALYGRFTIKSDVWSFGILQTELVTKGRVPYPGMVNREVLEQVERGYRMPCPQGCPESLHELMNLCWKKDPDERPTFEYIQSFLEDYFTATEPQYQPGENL
UniProt Q13188, sequence (whole entry, looked up): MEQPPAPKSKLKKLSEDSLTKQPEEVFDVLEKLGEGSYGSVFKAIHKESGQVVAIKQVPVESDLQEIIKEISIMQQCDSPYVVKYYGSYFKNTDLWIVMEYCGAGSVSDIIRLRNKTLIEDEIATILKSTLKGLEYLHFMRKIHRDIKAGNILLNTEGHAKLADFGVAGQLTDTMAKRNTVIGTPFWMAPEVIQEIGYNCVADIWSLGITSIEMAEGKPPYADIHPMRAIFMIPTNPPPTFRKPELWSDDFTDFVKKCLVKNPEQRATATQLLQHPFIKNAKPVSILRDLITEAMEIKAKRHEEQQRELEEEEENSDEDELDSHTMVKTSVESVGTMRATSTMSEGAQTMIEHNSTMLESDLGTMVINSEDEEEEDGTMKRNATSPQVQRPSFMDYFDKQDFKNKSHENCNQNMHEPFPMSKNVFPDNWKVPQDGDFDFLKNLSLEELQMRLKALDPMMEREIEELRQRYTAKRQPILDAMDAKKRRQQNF
UniProt Q96BR1, sequence (whole entry, looked up): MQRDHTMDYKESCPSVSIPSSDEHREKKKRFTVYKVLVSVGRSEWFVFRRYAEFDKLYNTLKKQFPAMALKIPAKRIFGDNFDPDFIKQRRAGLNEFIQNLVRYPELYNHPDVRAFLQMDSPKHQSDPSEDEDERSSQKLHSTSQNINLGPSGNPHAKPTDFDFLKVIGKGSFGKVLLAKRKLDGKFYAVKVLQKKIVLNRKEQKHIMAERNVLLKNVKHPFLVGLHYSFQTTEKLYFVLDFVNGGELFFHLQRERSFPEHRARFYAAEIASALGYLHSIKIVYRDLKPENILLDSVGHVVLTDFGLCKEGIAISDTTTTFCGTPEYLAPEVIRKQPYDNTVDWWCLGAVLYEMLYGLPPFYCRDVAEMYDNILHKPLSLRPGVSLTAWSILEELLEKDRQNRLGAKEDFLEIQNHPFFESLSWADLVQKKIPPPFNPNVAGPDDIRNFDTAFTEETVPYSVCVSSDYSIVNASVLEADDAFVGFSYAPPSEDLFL
UniProt Q00532, sequence (whole entry, looked up): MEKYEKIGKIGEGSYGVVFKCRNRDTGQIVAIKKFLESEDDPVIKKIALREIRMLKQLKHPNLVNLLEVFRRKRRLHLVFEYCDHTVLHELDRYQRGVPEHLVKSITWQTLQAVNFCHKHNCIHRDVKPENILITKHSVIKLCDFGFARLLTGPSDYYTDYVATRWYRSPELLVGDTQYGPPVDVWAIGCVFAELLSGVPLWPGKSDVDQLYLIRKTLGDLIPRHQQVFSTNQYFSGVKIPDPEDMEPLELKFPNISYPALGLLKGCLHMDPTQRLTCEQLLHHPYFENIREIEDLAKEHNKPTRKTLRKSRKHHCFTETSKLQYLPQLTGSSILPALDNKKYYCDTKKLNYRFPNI
UniProt Q15208, sequence (whole entry, looked up): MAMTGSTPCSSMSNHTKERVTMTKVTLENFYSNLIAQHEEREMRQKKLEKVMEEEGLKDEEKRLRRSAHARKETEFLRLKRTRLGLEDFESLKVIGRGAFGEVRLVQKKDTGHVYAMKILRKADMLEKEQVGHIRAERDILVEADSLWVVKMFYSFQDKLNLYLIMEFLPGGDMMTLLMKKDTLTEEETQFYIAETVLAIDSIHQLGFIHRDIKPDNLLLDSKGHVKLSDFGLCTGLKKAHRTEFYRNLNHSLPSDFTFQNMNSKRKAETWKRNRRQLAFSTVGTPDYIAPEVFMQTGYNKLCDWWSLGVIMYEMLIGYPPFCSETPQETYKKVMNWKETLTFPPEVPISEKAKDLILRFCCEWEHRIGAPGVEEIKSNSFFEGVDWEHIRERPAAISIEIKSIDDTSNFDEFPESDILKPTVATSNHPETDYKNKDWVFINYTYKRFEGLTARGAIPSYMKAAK
UniProt P21860, sequence (whole entry, looked up): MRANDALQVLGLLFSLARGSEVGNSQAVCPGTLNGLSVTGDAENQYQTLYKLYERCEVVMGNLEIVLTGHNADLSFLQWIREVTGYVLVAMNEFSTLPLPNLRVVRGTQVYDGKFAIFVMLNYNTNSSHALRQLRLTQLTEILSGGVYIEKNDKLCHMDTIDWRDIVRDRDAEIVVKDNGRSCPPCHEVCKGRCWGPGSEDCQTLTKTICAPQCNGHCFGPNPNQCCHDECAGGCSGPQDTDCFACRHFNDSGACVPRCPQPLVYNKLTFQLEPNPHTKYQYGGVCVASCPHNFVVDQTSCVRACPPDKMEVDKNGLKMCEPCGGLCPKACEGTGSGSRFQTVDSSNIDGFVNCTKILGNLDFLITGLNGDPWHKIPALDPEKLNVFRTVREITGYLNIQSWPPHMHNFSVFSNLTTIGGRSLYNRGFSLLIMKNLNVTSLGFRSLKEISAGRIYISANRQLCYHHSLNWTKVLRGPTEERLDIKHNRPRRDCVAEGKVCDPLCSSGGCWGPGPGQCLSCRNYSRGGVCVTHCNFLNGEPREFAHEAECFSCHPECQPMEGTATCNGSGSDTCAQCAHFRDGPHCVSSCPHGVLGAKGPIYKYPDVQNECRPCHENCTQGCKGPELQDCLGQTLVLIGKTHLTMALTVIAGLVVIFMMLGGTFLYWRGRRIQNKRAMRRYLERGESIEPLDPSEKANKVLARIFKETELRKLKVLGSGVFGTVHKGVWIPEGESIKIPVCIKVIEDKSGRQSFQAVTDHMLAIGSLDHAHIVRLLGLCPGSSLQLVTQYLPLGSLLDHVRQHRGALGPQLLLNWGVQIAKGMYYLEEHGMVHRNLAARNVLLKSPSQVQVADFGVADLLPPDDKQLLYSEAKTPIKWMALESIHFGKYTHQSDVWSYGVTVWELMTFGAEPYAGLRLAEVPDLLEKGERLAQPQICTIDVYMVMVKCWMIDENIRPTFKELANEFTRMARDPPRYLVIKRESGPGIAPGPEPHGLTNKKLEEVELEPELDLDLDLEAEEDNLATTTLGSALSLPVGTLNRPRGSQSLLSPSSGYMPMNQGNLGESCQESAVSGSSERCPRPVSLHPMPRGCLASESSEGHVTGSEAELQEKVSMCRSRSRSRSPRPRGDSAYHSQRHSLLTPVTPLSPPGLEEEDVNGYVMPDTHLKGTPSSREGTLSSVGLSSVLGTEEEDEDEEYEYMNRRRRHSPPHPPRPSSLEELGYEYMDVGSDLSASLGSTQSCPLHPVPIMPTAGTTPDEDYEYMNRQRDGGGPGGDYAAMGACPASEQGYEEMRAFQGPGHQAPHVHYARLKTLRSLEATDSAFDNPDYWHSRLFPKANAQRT
UniProt O14733, sequence (whole entry, looked up): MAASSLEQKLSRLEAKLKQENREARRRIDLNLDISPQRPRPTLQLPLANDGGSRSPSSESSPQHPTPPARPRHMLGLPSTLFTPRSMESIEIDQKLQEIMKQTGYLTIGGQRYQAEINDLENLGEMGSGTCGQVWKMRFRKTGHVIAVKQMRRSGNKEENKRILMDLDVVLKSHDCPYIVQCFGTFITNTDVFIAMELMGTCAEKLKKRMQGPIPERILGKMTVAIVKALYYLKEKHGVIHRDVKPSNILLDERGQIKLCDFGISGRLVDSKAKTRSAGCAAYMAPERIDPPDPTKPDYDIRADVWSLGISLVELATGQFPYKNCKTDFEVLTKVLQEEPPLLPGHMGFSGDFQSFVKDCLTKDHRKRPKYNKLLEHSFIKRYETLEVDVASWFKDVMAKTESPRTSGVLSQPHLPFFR

Set 1
SMILES: C[C@@H]1CN(c2cc(-c3nn(C)c4ccc(OC5(C)CC5)cc34)ncn2)C[C@H](C)O1
Effect on: cell-free assay
Method: competition with immobilised ligand
Tested at: 1 µM
Quantity: remaining binding
Tyrosine-protein kinase ABL1, phosphorylated (ABL1, Homo sapiens, UniProt P00519, Q252H): 58%
ERBB3 (Homo sapiens, UniProt P21860): 57%
STK3 (Homo sapiens, UniProt Q13188): 100%
PIKFYVE (Homo sapiens, UniProt Q9Y2I7): 78%
MAP2K7 (Homo sapiens, UniProt O14733): 74%
MAP4K5 (Homo sapiens, UniProt Q9Y4K4): 100%
EGFR (Homo sapiens, UniProt P00533, G719S): 72%
Tyrosine-protein kinase ABL1, phosphorylated (ABL1, Homo sapiens, UniProt P00519, M351T): 91%
YES1 (Homo sapiens, UniProt P07947): 98%
MET (Homo sapiens, UniProt P08581): 100%
SGK3 (Homo sapiens, UniProt Q96BR1): 67%
STK38 (Homo sapiens, UniProt Q15208): 57%
DCLK3 (Homo sapiens, UniProt Q9C098): 77%
CDKL1 (Homo sapiens, UniProt Q00532): 89%
BRSK1 (Homo sapiens, UniProt Q8TDC3): 97%
CSNK1A1 (Homo sapiens, UniProt P48729): 100%

Set 2
Structure (SMILES): CC(C)(C(=O)O)[C@H](NC(=O)Cc1cccc(I)c1)c1ccc2oc(=O)[nH]c2c1
Method: Incucyte 3D growth
Tested at: 30 µM
Reading: higher = more growth
Quantity: spheroid area
A375; 396.52 h: 1.56e+08 a.u. and 1.87e+08 a.u. and 1.66e+08 a.u. and 1.76e+08 a.u. and 1.64e+08 a.u.
NCI-H358; 222 h: 9.03e+06 a.u. and 7.51e+06 a.u. and 8.87e+06 a.u. and 7.89e+06 a.u. and 1e+07 a.u. and 8.26e+06 a.u.
NCI-H1437; 210 h: 8.81e+07 a.u. and 5.63e+07 a.u. and 6.73e+07 a.u. and 3.51e+07 a.u. and 5.16e+07 a.u. and 9.11e+07 a.u.

Set 3
Cell line: mouse MPNST tumor cells
Method: high-content immunofluorescence imaging
Measured: nuclear SOX9
Tested at: 10 µM
Time: 12 h
Notes: mean of 2 replicates
Relative to: DMSO control
Reading: higher = more nuclear SOX9
Quantity: nuclear SOX9 intensity
COc1cc(N2CCN(C(C)=O)CC2)ccc1Nc1ncc(Cl)c(Nc2ccc(N3CCN(C(C)=O)CC3)cc2OC)n1: 122 % of DMSO
O=C(O)c1cccnc1Nc1cccc(C(F)(F)F)c1: 111 % of DMSO
CC(C)OC(=O)CCC/C=C\C[C@@H]1[C@@H](CC[C@@H](O)CCc2ccccc2)[C@H](O)C[C@@H]1O: 103 % of DMSO
CCCCN(CCCC)CC(O)c1cc(Cl)cc2c1-c1ccc(Cl)cc1/C2=C/c1ccc(Cl)cc1 (centres unmarked): 89.5 % of DMSO

Set 4
Species: mouse
Matrix: microsomes or S9
Tested at: 2 µM
Time: 0.5 h
Quantity: remaining compound
CCOc1ccc2nc(NC(=O)CN(C)S(=O)(=O)c3ccc(Br)s3)sc2c1: < 1%
CC(C)c1nc2cc(N3CC(=O)C(c4nc(-c5ccccc5)cs4)=C3N)ccc2[nH]1: 81.7%
Cc1[nH]c(C(=O)NCc2ccc3c(c2)OCO3)c(C)c1S(=O)(=O)N1CCCCCC1: 86.6%
CCN1CCCC1CNC(=O)C1CCCN(c2ncnc3[nH]cnc23)C1 (centres unmarked): 73.4%

Set 5
Organism: Sarcocystis neurona
Effect on: parasite growth
Tested at: 10 µM
Time: 96 h
Relative to: untreated
Quantity: log2 fold change
Cc1onc(-c2c(Cl)cccc2Cl)c1C(=O)N[C@@H]1C(=O)N2[C@@H]1SC(C)(C)[C@@H]2C(=O)O: 0.33
CN1CCN(CCCN2c3ccccc3Sc3ccc(Cl)cc32)CC1: -0.23
CC(COc1ccccc1)N(CCCl)Cc1ccccc1 (centres unmarked): 0.34

Other studies, line by line
Method: logD(dd/w) and ALogP
Notes: JT method
CC(C)C[C@@H]1NC(=O)[C@H](C(C)C)NC(=O)[C@H](CCC(=O)N2CCCC2)NC(=O)[C@H](CC(C)C)NC(=O)[C@@H](Cc2cscn2)NC(=O)[C@H](CC(C)C)NC(=O)[C@@H](CC(C)C)NC1=O  lipophilic permeability efficiency: 1.78
CC(C)C[C@@H]1NC(=O)[C@H](C)NC(=O)[C@@H](CC(C)C)NC(=O)[C@@H](CCC(=O)N2CCCC2)NC(=O)[C@H](CC(C)C)NC(=O)[C@@H](CC(C)C)NC(=O)[C@H](CC(C)C)NC1=O  lipophilic permeability efficiency: 2.23

A few entries again (set 1):
YES1 (Homo sapiens, UniProt P07947): 98%
MAP2K7 (Homo sapiens, UniProt O14733): 74%
